Assay results pooled from the literature.
Every numbered part comes from another study and shows a few of its results, in no order. “And” joins repeats or separate records; there may be more than shown.
Chain of UniProt P42685 (whole entry, looked up): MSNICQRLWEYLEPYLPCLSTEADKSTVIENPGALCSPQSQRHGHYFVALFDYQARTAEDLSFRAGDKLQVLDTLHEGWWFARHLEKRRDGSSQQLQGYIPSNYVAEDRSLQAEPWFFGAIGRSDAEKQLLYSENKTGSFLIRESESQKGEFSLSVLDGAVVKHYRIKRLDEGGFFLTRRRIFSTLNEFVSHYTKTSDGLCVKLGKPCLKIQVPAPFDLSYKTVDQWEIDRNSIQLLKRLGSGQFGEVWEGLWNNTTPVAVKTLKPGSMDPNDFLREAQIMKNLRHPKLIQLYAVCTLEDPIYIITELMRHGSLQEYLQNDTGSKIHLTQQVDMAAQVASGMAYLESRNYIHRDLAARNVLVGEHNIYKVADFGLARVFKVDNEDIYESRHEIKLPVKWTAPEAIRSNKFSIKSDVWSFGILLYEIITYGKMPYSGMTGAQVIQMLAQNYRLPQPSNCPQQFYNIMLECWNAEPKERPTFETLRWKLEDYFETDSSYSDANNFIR
Chain of UniProt P54756 (whole entry, looked up): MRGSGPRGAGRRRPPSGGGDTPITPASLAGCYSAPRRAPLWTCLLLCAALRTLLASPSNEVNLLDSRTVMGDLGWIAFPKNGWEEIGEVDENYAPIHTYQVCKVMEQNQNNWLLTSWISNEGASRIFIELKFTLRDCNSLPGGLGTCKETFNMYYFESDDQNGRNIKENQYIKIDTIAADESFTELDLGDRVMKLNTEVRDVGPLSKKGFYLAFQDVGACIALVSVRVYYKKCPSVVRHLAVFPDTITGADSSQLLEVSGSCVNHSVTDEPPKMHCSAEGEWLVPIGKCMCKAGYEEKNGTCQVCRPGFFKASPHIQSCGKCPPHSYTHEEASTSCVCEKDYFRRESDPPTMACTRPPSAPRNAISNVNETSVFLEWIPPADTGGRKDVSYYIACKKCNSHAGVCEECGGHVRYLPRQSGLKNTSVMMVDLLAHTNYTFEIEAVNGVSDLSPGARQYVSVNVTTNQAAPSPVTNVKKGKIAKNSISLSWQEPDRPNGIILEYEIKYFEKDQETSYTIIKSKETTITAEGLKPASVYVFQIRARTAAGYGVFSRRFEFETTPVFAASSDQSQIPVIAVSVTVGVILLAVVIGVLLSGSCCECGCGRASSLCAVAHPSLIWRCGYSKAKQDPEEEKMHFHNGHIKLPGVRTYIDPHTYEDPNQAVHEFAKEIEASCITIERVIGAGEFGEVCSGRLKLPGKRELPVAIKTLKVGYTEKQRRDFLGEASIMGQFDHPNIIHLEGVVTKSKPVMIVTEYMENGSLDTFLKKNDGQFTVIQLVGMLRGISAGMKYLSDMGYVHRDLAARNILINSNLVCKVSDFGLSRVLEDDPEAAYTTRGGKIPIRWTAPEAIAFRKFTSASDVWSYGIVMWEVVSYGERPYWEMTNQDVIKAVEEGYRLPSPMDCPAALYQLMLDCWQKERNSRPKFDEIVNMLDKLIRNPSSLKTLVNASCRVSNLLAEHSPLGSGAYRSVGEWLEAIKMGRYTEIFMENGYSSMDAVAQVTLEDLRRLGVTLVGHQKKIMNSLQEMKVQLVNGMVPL
Chain of UniProt Q9HC98 (whole entry, looked up): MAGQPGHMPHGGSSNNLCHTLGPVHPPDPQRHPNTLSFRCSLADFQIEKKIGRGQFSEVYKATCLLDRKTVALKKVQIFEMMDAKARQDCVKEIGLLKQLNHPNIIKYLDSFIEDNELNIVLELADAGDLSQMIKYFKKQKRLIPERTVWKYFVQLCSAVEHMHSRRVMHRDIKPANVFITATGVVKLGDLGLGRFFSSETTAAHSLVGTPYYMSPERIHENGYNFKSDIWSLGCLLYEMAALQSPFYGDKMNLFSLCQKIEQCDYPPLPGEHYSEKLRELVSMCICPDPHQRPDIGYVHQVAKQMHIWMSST
Chain of UniProt P11362 (whole entry, looked up): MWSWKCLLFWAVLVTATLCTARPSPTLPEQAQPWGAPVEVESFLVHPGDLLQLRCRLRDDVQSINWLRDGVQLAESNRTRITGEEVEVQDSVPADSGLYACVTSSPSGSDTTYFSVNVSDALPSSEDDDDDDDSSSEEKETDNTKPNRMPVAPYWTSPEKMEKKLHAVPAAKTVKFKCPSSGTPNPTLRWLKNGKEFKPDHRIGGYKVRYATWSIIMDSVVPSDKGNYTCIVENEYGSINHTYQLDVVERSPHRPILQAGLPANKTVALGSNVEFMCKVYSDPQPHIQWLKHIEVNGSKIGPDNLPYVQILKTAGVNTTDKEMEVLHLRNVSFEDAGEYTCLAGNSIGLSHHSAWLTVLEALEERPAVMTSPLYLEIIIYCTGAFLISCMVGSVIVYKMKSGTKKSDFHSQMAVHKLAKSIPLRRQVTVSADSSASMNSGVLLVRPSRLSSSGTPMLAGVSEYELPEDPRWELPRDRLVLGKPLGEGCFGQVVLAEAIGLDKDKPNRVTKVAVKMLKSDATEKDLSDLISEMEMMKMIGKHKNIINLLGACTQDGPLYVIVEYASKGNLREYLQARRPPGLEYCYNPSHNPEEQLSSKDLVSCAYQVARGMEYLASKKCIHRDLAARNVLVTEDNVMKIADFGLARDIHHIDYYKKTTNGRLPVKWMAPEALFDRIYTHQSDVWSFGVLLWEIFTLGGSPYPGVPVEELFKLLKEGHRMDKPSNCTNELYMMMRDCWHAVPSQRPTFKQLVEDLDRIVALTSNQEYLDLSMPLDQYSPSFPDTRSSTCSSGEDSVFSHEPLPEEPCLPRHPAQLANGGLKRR
Chain of UniProt O14578 (whole entry, looked up): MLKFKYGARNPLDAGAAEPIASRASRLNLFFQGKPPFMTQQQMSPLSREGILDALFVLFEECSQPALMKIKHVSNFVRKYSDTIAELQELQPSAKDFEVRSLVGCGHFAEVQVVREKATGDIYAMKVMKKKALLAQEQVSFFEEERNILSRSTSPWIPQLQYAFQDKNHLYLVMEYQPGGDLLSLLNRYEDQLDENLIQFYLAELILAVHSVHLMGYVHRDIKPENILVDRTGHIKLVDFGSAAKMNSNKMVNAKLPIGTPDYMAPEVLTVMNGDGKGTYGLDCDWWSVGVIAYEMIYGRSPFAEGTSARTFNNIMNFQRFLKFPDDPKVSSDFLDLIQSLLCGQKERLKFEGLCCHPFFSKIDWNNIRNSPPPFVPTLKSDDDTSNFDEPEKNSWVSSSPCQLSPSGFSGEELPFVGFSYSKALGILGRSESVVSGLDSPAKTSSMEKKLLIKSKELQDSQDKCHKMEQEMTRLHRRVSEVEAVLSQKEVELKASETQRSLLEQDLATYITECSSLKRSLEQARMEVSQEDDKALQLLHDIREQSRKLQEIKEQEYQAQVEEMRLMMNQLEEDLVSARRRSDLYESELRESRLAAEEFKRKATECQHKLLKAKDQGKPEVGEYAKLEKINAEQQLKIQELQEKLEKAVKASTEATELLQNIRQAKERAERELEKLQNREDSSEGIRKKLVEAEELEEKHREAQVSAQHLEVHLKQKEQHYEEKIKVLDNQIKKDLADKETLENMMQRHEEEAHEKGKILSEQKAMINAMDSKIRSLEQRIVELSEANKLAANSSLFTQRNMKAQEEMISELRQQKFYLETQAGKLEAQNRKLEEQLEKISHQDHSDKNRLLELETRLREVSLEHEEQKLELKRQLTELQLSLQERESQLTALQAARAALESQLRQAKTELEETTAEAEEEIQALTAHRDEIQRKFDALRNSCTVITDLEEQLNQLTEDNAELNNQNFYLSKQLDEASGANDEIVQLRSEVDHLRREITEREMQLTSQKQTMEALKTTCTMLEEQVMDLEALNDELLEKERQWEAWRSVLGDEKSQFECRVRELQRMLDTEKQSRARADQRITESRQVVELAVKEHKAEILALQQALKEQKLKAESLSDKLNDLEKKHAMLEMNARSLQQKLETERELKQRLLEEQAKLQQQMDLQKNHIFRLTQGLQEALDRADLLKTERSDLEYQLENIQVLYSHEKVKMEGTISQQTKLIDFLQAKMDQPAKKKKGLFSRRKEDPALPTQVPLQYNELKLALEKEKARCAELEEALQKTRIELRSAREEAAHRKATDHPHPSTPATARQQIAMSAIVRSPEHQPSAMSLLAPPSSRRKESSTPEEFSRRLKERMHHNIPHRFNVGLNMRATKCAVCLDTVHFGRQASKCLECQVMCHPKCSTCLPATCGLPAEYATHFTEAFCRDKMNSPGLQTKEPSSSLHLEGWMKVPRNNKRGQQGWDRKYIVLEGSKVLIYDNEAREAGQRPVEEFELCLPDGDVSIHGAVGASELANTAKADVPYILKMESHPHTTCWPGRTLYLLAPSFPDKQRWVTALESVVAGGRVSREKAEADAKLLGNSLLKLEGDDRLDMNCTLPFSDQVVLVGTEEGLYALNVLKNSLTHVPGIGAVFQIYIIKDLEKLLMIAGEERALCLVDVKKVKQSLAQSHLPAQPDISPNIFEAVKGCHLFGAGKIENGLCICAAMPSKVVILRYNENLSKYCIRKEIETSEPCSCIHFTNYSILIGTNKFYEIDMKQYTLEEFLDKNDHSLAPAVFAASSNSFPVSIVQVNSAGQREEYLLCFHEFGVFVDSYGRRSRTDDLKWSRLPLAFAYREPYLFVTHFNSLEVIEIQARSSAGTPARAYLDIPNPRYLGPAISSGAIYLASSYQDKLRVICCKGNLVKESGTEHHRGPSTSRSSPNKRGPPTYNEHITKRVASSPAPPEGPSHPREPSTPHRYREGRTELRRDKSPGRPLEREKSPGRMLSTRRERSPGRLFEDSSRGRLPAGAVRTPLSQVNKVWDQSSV
Chain of UniProt P49137 (whole entry, looked up): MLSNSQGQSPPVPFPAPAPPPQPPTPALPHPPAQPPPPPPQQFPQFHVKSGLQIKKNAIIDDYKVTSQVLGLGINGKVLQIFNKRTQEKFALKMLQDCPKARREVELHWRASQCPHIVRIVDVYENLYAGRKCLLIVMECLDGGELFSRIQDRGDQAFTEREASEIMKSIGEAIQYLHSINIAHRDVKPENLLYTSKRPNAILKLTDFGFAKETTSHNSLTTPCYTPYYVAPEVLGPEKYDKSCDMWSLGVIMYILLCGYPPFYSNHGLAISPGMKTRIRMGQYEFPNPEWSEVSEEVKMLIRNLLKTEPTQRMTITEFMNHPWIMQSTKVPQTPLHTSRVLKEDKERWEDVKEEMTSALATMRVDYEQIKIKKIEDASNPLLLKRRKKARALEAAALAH

Set 1 — effect on: enzyme activity; action: inhibitor; concentration: 0.5 µM; relative to: control
SMILES: CCCNC(=O)Nc1ccc(Oc2ncnc3cc(OC)c(OC)cc23)cc1Cl
| target | remaining activity [%] |
| --- | --- |
| RPS6KA2 (Homo sapiens, UniProt Q15349) | 95.7 |
| MAPKAPK2 (Homo sapiens, UniProt P49137) | 101 |
| JAK3 (Homo sapiens, UniProt P52333) | 88.9 |
| MAPK3 (Homo sapiens, UniProt P27361) | 105 |
| GRK7 (Homo sapiens, UniProt Q8WTQ7) | 94.7 |
| MERTK (Homo sapiens, UniProt Q12866) | 67.7 |
| NEK6 (Homo sapiens, UniProt Q9HC98) | 105 |
| ABL2 (Homo sapiens, UniProt P42684) | 90.5 |
| MST1R (Homo sapiens, UniProt Q04912) | 89.3 |
| ULK2 (Homo sapiens, UniProt Q8IYT8) | 89.2 |
| WEE1 (Homo sapiens, UniProt P30291) | 92.9 |
| TBK1 (Homo sapiens, UniProt Q9UHD2) | 90 |
| FGFR1 (Homo sapiens, UniProt P11362) | 75.4 |
| FRK (Homo sapiens, UniProt P42685) | 87.2 |

Set 2 — effect on: cell-free assay; technique: competition with immobilised ligand; concentration: 1 µM
SMILES: O=C(NS(=O)(=O)c1ccc(NCC2CCOCC2)c([N+](=O)[O-])c1)c1ccc(N2CCN(Cc3ccc(C(F)(F)F)cc3-c3ccc(Cl)cc3)CC2)cc1Oc1cnc2[nH]ccc2c1
| target | remaining binding [%] |
| --- | --- |
| CAMK2A (Homo sapiens, UniProt Q9UQM7) | 87 |
| PRKG1 (Homo sapiens, UniProt Q13976) | 96 |
| NEK10 (Homo sapiens, UniProt Q6ZWH5) | 100 |
| KIT (Homo sapiens, UniProt P10721) | 100 |
| CIT (Homo sapiens, UniProt O14578) | 91 |
| NLK (Homo sapiens, UniProt Q9UBE8) | 93 |
| NEK11 (Homo sapiens, UniProt Q8NG66) | 97 |
| DYRK1A (Homo sapiens, UniProt Q13627) | 63 |
| EPHA5 (Homo sapiens, UniProt P54756) | 76 |

Set 3 — effect on: binding; action: competitor; technique: NanoBRET; cells: HEK293; concentration: 5.08 nM
Target: GTPase KRas (KRAS, Homo sapiens, UniProt P01116, Q61L)
| SMILES | normalized BRET |
| --- | --- |
| CC(C)C(=O)N1CCN(c2nc(OC[C@@H]3CCCN3C)nc3c2CCN(c2cccc4cccc(Cl)c24)C3)C[C@@H]1CC#N | 102% and 97.1% and 94.1% |
| CCC(=O)N1CCN(c2nc(OC[C@@H]3CCCN3C)nc3c2CCN(c2cccc4cccc(Cl)c24)C3)C[C@@H]1CC#N | 99.2% and 97% and 102% |
| CN1CCC[C@H]1COc1nc2c(c(N3CCN(S(C)(=O)=O)[C@@H](CC#N)C3)n1)CCN(c1cccc3cccc(Cl)c13)C2 | 101% and 94.5% |
| CC(=O)N1CCN(c2nc(OC[C@@H]3CCCN3C)nc3c2CCN(c2cccc4cccc(Cl)c24)C3)C[C@@H]1CC#N | 104% and 92.9% and 101% |

Set 4
Structure (SMILES): CC(=O)N[C@@H](Cc1c[nH]c2ccccc12)C(=O)N[C@@H](CCC(=O)C=[N+]=[N-])C(=O)OC(C)C
| test system | setting | tumour volume |
| --- | --- | --- |
| CES1-/- mice, OVA-expressing MC-38 tumour | dose not given, day 22 after injection | 10 mm3 and 103 mm3 and 0 mm3 and 4 mm3 |
| mouse, EL4 tumour | subcutaneous, 0.3 mg/kg, day 8 | 741 mm3 and 758 mm3 and 531 mm3 and 330 mm3 and 402 mm3 and 228 mm3 |
| CES1-/- mice, OVA-expressing MC-38 tumour | dose not given, day 19 after injection | 122 mm3 and 43 mm3 and 109 mm3 and 0 mm3 and 11 mm3 |
| mice, MC-38 tumour rechallenge | 0.26 mg/kg, day 57 after injection | 0 mm3 |
| mice, MC-38 tumour rechallenge | 0.26 mg/kg, day 39 after injection | 0 mm3 |
| mice, MC-38 tumour rechallenge | 0.26 mg/kg, day 21 after injection | 0 mm3 |
| mice, MC-38 tumour rechallenge | 1 mg/kg, day 11 after injection | 8.79 mm3 and 0 mm3 |

Some of these lines once more (set 1):
| target | remaining activity [%] |
| --- | --- |
| FRK (Homo sapiens, UniProt P42685) | 87.2 |
| JAK3 (Homo sapiens, UniProt P52333) | 88.9 |
| MERTK (Homo sapiens, UniProt Q12866) | 67.7 |
| RPS6KA2 (Homo sapiens, UniProt Q15349) | 95.7 |
